Measurements collected from several papers.
Each line is one published result; not all experiments were run side by side. ± gives the spread as reported.

Compound	organism	assay	test system	conditions	IC50
CN1CCc2c(c3ccccc3n2Cc2ccc(C(=O)NO)cc2)C1	Lucilia cuprina	larval weight gain	LS strain, larvae on impregnated cotton wool	24 h	> 1000 µg
O=C1CSC(=S)N1/N=C/c1cn(Cc2ccc(F)cc2)c2ccc([N+](=O)[O-])cc12	Leishmania major	parasite growth, resazurin	THP-1	72 h, intracellular, amastigote	> 10000 nM
CCN(CC)Cc1ccc2cc(COC(=O)Nc3ccc(C(=O)NO)cc3)ccc2c1	Lucilia cuprina	larval weight gain	LS strain, larvae on impregnated cotton wool	24 h	477 µg
Cc1cc(C)n2c1C=C1C=CC(CCC(=O)NCCNC(=O)CCc3ccccc3)=[N+]1[B-]2(F)F	Trypanosoma brucei	parasite growth, ATP luminescence	–	48 h	> 50000 nM
C[C@@H]1[C@H](O)[C@@H](C)/C=C/C=C/C=C/C=C/C=C/C=C/C=C/[C@H](O[C@@H]2O[C@H](C)[C@@H](O)[C@H](N)[C@@H]2O)C[C@@H]2O[C@](O)(C[C@@H](O)C[C@@H](O)[C@H](O)CC[C@@H](O)C[C@@H](O)CC(=O)O[C@H]1C)C[C@H](O)[C@H]2C(=O)O	Leishmania amazonensis	parasite growth, imaging	mouse Peritoneal macrophage	48 h, intracellular, amastigote	36 nM
O=[N+]([O-])c1ccc(/C=N/N=C/c2ccccc2)s1	Leishmania major	parasite growth	–	intracellular, amastigote	> 7000 nM
Cc1ccc(Cn2cc(/C=C3\SC(=S)NC3=O)c3cc([N+](=O)[O-])ccc32)cc1	Trypanosoma congolense	–	trypomastigotes, IL3000	–	> 70000 nM
Clc1ccc2c(Nc3ccc(N4CCNCC4)cc3)ccnc2c1	Plasmodium falciparum	parasite growth, SYBR Green	D6	72 h, blood stage	51 nM
O=Cc1c[nH]c2ccc([N+](=O)[O-])cc12	Leishmania major	parasite growth, resazurin	THP-1	24 h, intracellular, amastigote	> 10000 nM
CC(C)CN1CCN(c2ccc(Nc3ccnc4cc(Cl)ccc34)cc2)CC1	Plasmodium falciparum	parasite growth, SYBR Green	DD2	72 h, drug-resistant strain, blood stage	12 nM
O=c1[nH]c2c([N+](=O)[O-])cccc2cc1-c1cccc(CO)c1	Trypanosoma brucei	parasite growth, resazurin	–	74 h, trypomastigote	1500 nM
O=C1CSC(=S)N1/N=C/c1cn(Cc2ccccc2)c2ccc([N+](=O)[O-])cc12	Leishmania major	parasite growth, resazurin	THP-1	72 h, intracellular, amastigote	2440 nM
O=c1c(O)c(-c2cc(O)c(O)c(O)c2)oc2cc(O)cc(O)c12	human alphaherpesvirus 2	viral replication	HeLa, 333	24 h	2100 ± 300 nM
COc1ccccc1C(=O)Nc1ccccc1OCc1ccc([N+](=O)[O-])cc1	Human immunodeficiency virus 1	viral replication	MT4	7 days	26600 nM
CCCC(=O)OCOC(=O)C(C)(C)C	Lucilia cuprina	larval weight gain	LS strain, larvae on impregnated cotton wool	24 h	> 1000 µg
COc1ccc(Oc2ccccc2NC(=O)c2ccccc2OC)cc1	Human immunodeficiency virus 1	viral replication	MT4	7 days	50300 nM
O=C1CSC(=S)N1/N=C/c1cn(Cc2cccc(Cl)c2)c2ccc([N+](=O)[O-])cc12	Trypanosoma congolense	–	trypomastigotes, IL3000	–	> 56000 nM
CCCCN1CCC(c2ccc(Nc3ccnc4cc(Cl)ccc34)cc2)CC1	Plasmodium falciparum	parasite growth, SYBR Green	D6	72 h, blood stage	4 nM
O=c1[nH]c2c([N+](=O)[O-])cccc2cc1-c1ccccc1	Trypanosoma brucei	parasite growth, resazurin	–	74 h, trypomastigote	4700 nM
O=C1NC(=S)S/C1=C\c1cn(Cc2ccc(F)cc2)c2ccc([N+](=O)[O-])cc12	Leishmania major	parasite growth, resazurin	THP-1	72 h, intracellular, amastigote	> 10000 nM
CS(=O)(=O)c1ccc(-c2cnc(N)c(-c3ccc(C(F)(F)F)nc3)c2)cc1	Plasmodium cynomolgi	schizont (large EEF) growth	primary rhesus hepatocytes	day 5, compound added at 120 h	1500 nM

For quick reference, copied from above:
Compound	organism	assay	test system	conditions	IC50
CN1CCc2c(c3ccccc3n2Cc2ccc(C(=O)NO)cc2)C1	Lucilia cuprina	larval weight gain	LS strain, larvae on impregnated cotton wool	24 h	> 1000 µg
O=C1CSC(=S)N1/N=C/c1cn(Cc2ccc(F)cc2)c2ccc([N+](=O)[O-])cc12	Leishmania major	parasite growth, resazurin	THP-1	72 h, intracellular, amastigote	> 10000 nM
CCN(CC)Cc1ccc2cc(COC(=O)Nc3ccc(C(=O)NO)cc3)ccc2c1	Lucilia cuprina	larval weight gain	LS strain, larvae on impregnated cotton wool	24 h	477 µg
